Assay results from different studies.
Protocols differ between the studies behind these lines. Several values in a cell are separate wells, animals, samples, runs or records. ± gives the spread as reported. No end group written: not given here.
B1: disulfide; chain GLPVCGETCVGGTCNTPGCTCSWPVCTRN (disulfide (positions not given here))
B2: bicyclic; chain AATCHCRRSCYSTEYSYGTCTVMGINHRFCCL (also: bicyclic or more (positions not given here))

For `KTKEGVVHGVATVA`, “secondary structure content” read 45.6% (far-UV circular dichroism, item: β-sheet; peptide, PBS; 10 µM, pH 7.4, 25 °C).
For `regorafenib N-β-glucuronide`, “metabolite to parent AUC ratio” read 3.84% (Oatp1b2 knockout mice; oral, regorafenib single dose, molecular weight corrected).
`coproporphyrin I` — result for “lowest mean plasma concentration”: 0.636 ± 0.032 nM (human, plasma; concentration not given, baseline day).
For `EESLSLSLSLSLSLEE`, the nanofibre width was 8.7 ± 1.1 nm (AFM; peptide, dried on mica from water; 0.1 wt%).
For `GPSQPPYPGDDAPVEDLIRFYDNLQQYLNVVTRHRY`, the melting temperature was 47.7 ± 1.6 °C (CD thermal denaturation; peptide, sodium phosphate buffer with NaCl; 30 µM, pH 7.4).
For `VEALLNLKALE`, the cleavage half-life was 692 days (LC-MS; peptide, 100 mM Na2HPO4; pH 7.4, 37 °C).
The body weight of `LVHYTHCGSLGV` is reported as 21.1 g and 21.2 g (Epstein-Barr virus; peptide, EBV-infected humanized B-NDG mice; 20 mg/kg, day 0).
`Teicoplanin` has a recovery of 102% (QC solution; 6 months, -40 °C, high QC level).
With `ESLSLSLSLSLSLEGKKDGDGDFAIDAPE` the nanofibre width was 10.2 ± 1.4 nm (AFM; peptide, dried on mica from water; 0.1 wt%).
`GSGAGSETKM` has a binding intensity of -0.0591 (human MAGI1-2/6 PDZ construct (MBP fusion); automated holdup; peptide, crude extract; concentration not given, corrected by standard peak, unit not given; relative to: biotin control resin, higher = stronger binding).
`TFFYGGSRGKRNNFKTEEY-OH` gave a brain uptake of 0.035 ± 0.005% (in situ brain perfusion; peptide, mouse, right brain hemisphere; 5 min; relative to: input).
For `colistin`, the MIC was 1 µg/mL (Acinetobacter baumannii; broth microdilution; clinical isolate RKI-No_377/15).
`benzalkonium chloride` has a hemolysis of roughly 7% (mouse erythrocytes; 10 µM, 30 min, 37 °C).
Under “conversion to native product”, `B1` is recorded as 70% and 69% (oxidative folding, RP-HPLC; 0.1 M NH4HCO3 with isopropanol; 0.1 mg/mL, pH 8.5, room temperature, together with: 0.4 mM GSSG, 2 mM GSH).
`EKPIDSETKM` has a binding intensity of -0.149 (human MAGI1-3/6 PDZ construct (MBP fusion); automated holdup; peptide, crude extract; concentration not given, corrected by standard peak, unit not given; relative to: biotin control resin, higher = stronger binding).
For `coproporphyrin III`, the urine concentration was 50.9 nM (healthy human volunteers, urine; dose not given, 0-24 h, median, cumulative urine, together with: ezetimibe plus rifampin).
Under “log2 fold change”, `Polymyxin B` is recorded as -9.9 (untargeted LC-MS metabolomics, item: L-phenylalanine; Sprague-Dawley rat, right cerebral cortex; intracerebroventricular, 0.75 mg/kg, 1 h; relative to: NaCl control).
`[177Lu]Lu-DOTA-TATE` gave a radiochemical purity of 97.6 ± 0.6% (radio-HPLC; labelling formulation with quenchers; 2 h, 50 MBq/nmol).
`caspofungin` gave a magnesium of 0.8 mmol/L (adult ICU patients, mITT, serum; dose not given, day 30).
`CTOP` gave a retention time of 12.1 min (RP-HPLC; HALO C18 column; 25 µM, acetic acid/methanol, 25 min gradient).
The kinetic solubility of `Rilpivirine docusate` is reported as roughly 50 mg/mL (Peceol; mean of three).
With `FNA / CGLSGLGVA-NH2 ([18F]FNA-labelled, C-amide)` the tissue uptake was 0.29 %ID/g (ex vivo gamma counting; peptide, glioblastoma mouse model, lung; 60 min post injection, together with: 500-fold excess CooP blocking).
Under “sedimentation coefficient S20,w”, `B2` is recorded as 0.79 S (sedimentation velocity AUC; 10 mM Tris-maleate; 100 µM, pH 6.4, 20 °C).

Repeated from above:
The kinetic solubility of `Rilpivirine docusate` is reported as roughly 50 mg/mL (Peceol; mean of three).
For `GPSQPPYPGDDAPVEDLIRFYDNLQQYLNVVTRHRY`, the melting temperature was 47.7 ± 1.6 °C (CD thermal denaturation; peptide, sodium phosphate buffer with NaCl; 30 µM, pH 7.4).
